Assay results gathered from unrelated publications.
Each numbered part is a random draw from the data of one study; scales do not carry over between parts.

Study 1
Target: Interferon regulatory factor 7, full length, phosphomimetic (IRF7, Homo sapiens, UniProt Q92985, residues 1-503, S101K/S471D/S472D/S475D/S476D/S477D/S483D/S484D/S487D)
Method: protein-binding microarray
Form: double-stranded DNA, one strand shown
Medium: in vitro
Tested at: 250 nM
Setting: 60-bp whole probe
Added: salmon DNA 0.4 mg/ml
Baseline: random background probes
Direction: higher = stronger binding
Constant ends, left off below: GCCTAGCAC … GTCTTGATTCGCTTGACGCTGCTG
Residues (chain): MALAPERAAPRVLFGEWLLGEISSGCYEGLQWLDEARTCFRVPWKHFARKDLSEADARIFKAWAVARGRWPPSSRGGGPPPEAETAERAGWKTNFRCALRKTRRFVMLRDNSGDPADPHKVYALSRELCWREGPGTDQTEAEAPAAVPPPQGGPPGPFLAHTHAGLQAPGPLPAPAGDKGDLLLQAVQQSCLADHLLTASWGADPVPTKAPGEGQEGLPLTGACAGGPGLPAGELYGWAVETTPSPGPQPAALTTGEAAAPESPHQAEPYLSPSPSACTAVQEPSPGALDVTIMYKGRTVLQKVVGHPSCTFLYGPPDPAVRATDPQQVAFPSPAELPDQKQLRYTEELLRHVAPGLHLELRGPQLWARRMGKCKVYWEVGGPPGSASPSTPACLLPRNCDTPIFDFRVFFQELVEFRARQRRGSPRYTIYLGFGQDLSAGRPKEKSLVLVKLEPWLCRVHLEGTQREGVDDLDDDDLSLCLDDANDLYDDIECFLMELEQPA
Strand	log fluorescence
TTAGATTTCAGACGGGATTAGTGCTAG	-0.072 z-score
GACTGTTTCGGGTTTCGGGACGTGCTA	7.13 z-score
AACCATTTTGGTTTTCTCTAGTGCTAG	0.393 z-score
TTAGATATAGGGTATCGATTAGTGCTA	0.41 z-score
AGACCTTGCTTTATGTGTAGGTGCTAG	-0.0242 z-score

Study 2
Target: RNA binding protein fox-1 homolog 2, RRM domain, GST-SBP tag (RBFOX2, Homo sapiens, UniProt O43251-10, residues 100-194)
Method: RNA Bind-n-Seq
Form: RNA
Medium: in vitro
Tested at: 365 nM
Setting: natural RNA segment, single round, ends assumed
Baseline: no-protein control
Direction: higher = stronger binding
Strand	RBNS enrichment (R)
GGGAGUUCUACAGUCCGACGAUCUAAGACCCUGCCCCACUCUCUGAGCUGCCACUAGAGCUGCCACCUUCCCUCCUGUAAUUAUUUUCUAUUUUUGUAAACUUGUUGCAUUUUUAUAUGAUUUUCUUGACUGCUGGAAUUCUCGGGUGCCAA	1.36
GGGAGUUCUACAGUCCGACGAUCUAGUUACAACCUAUUCUUUUGCAUACAUAGCCUUUCCUUCCCUGCAAAAAGUUAAGCCUGCUAAGUAUUCAGAUCCCUGUCAUUUACUUCUCAGCAGUCUCAUUCAAGCUUGGAAUUCUCGGGUGCCAA	0.549
GGGAGUUCUACAGUCCGACGAUCACACGCAUUGUCCUUGUCAUUUGGGCCCCGAGCUCUGACCCUCGUGUCUGACGCGGCCACCUCUUUCUGGAGGGGCUGAGGACAGAUGUGCCUGCUUGUGGAGACCAGGCUGGAAUUCUCGGGUGCCAA	0.557

Study 3
Target: Sal-like protein 4, full length isoform B (SALL4, Homo sapiens, UniProt Q9UJQ4-2, residues 1-616)
Method: universal PBM
Form: double-stranded DNA, one strand shown
Medium: in vitro
Tested at: not given
Setting: 8-mer, flanks averaged, mean of replicates
Direction: higher = stronger binding
Strand	E-score
ACAGGCTG	-0.161
ACTGATAT	0.169
CATATAGG	0.248
TCCCACAA	0.0723

Single results of other studies
Molecule	target	test	test system	setting	scale	quantity	value
PhoQ, residues 284 288 289 292 302 303 SMYGEC	PhoP, residues 12 14 15 18 19 LHATL (Escherichia coli, UniProt P23836)	Sort-seq, refers to: YFP reporter	E. coli	PhoQ-PhoP variant library, added: 10 µM Mg2+	baseline: high Mg2+ state, higher = stronger signaling	fold induction	9.69

A few entries again (study 2):
Strand	RBNS enrichment (R)
GGGAGUUCUACAGUCCGACGAUCUAGUUACAACCUAUUCUUUUGCAUACAUAGCCUUUCCUUCCCUGCAAAAAGUUAAGCCUGCUAAGUAUUCAGAUCCCUGUCAUUUACUUCUCAGCAGUCUCAUUCAAGCUUGGAAUUCUCGGGUGCCAA	0.549
GGGAGUUCUACAGUCCGACGAUCACACGCAUUGUCCUUGUCAUUUGGGCCCCGAGCUCUGACCCUCGUGUCUGACGCGGCCACCUCUUUCUGGAGGGGCUGAGGACAGAUGUGCCUGCUUGUGGAGACCAGGCUGGAAUUCUCGGGUGCCAA	0.557
